Measured values gathered from unrelated publications.
Numbered parts are unrelated; each lists some results of a single study.

Study 1
Target: Histone acetyltransferase KAT6A, winged helix 2, GST fusion (KAT6A, Homo sapiens, UniProt Q92794, residues 85-181)
Method: protein binding microarray
Form: double-stranded DNA, one strand shown
Medium: in vitro
Concentration: not given
Notes: 8-mer, flanks averaged, mean of 2 arrays, mostly near background
Reference: not given
Reading: higher = stronger binding
Construct (chain): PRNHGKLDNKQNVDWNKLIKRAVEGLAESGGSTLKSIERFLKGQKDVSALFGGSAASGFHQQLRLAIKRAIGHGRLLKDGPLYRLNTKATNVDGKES
Oligonucleotide | E-score
CAAACGCG | 0.0556
AGCACATC | -0.0617
GCACAGCC | 0.118
TACGCGGA | 0.157
AACAGAGC | -4.5e-05
CACACGGC | 0.103
CGTTCGGA | 0.129
CTCGCATC | 0.0833
GAAGACAC | -0.0401
CGTTCCCA | -0.0507
GGTGATCA | 0.0481
GTTGCCTA | 0.0719
GAGAGCAC | 0.13
AATCCATA | -0.0594
ACTAGCTC | 0.0476
AGCATGAA | 0.0216

Study 2
Target: RING finger protein unkempt homolog, zinc fingers 1-6, GST-SBP tag (UNK, Homo sapiens, UniProt Q9C0B0, residues 30-357)
Method: RNA Bind-n-Seq
Form: RNA
Medium: in vitro
Concentration: not given
Notes: RNA with constant flanks, human and mouse sites, ends assumed
Reference: input RNA pool
Reading: higher = stronger binding
Target sequence (chain): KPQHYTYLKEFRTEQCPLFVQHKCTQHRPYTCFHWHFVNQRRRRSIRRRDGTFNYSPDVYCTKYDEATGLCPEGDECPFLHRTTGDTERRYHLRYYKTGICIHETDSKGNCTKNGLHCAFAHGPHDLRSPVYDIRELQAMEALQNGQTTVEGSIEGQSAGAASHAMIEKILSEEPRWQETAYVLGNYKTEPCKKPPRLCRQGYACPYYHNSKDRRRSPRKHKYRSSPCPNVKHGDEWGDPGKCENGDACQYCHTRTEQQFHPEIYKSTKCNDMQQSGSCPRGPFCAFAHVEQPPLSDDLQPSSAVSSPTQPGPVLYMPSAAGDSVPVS
Oligonucleotide | bound/input enrichment [ratio]
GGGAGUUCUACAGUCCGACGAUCGGUAACAAGAGACUGGAUGCUGCUUAUCGUUCCAUGAACGGGAAAGGCCCCGUUUACUUACUUUUCAGUGUCAACGGCAGUGGACACUUCUGUGGCGUGGCAGAAAUGAAAUCUGCUGUGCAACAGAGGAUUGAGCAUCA | 0.152
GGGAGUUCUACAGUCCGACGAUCGUUACUGGGACCUUGGAGACCAAAUACAAGUGGUGUGAGUAUGGUCUGACUUUCACAGAAAAGUGGAACACUGAUAACACUCUGGGAACAGAAAUCGCAAUUGAAGACCAGAUUUGUCAACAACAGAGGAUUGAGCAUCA | 0.125
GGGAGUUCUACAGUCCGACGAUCACUGAUGGCACGGGCAGAAUCACAUUUAAGAAAAAUGGUUUGGAACACUUUUUAAUAAAAAAUUGUAAAAUCAGUUUCCAGUGUGGUCAAAAUUAGAAUGUAAAGGAAAGCAUUUUUAAGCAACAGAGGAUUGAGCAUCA | 0.827
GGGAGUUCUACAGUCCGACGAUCCAGAUGGUCACCAGCUCUCAGAGCUGCACACAGCUGCUCUAGGGGAAAUGACCCAGAGCUUAGCUCACUGUAGAGGAAUGUCCUUGGCGGAAUAGGAGAUAAGAGAAAACUCCAAUCUGACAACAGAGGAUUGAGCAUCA | 0.0938
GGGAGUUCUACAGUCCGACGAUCCAGAGCUGGACAGACUUUUCAAGGCUCCAUCUUUCUAAUAAACUGGCCAUUUUUGGAAUUGGUUAUAACACCCGUUGGAAAGAGGAUAUCCGUUACCAUUAUGCUGAGAUCAGCUCCCAGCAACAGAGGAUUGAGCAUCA | 0.0965
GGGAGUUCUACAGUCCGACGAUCUUUUUCUUGUGUAUACAAGUAUAUAUUUUUGUUUGACGCGGACUAAAUCAUUUUCAUUUAAUUUCCGGUAAACAAAACCCACGCGAAUGGGCACUUGUUCCCGAUCAUAAUAAAAAUGGACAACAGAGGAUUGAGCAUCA | 0.35
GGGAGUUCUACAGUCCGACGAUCGACAUGAUAACUAAAUUUGAAGAUUCUGAGGAAAUUUCUUCAUCAACUUAUUUUCCAGGCAGCAUUAUAGACUAUCCAGAAGAAAUAAGUGUAUCUUUAGAUCGGACUGCCCCACCAGAUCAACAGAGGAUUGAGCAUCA | 0.219
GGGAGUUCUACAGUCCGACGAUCCUCAUGCAAAAGGAUUUUGUAUCCCCGGCCUACUUGAAGAAGUGGUCAGCUAAAGGAAUCCAGGUUGUUGGUUGGACUGUUAAUACCUUUGAUGAAAAGAGUUACUACGAAUCCCAUCUUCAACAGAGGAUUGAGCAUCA | 0.0773

Study 3
Target: Phosphate system positive regulatory protein PHO4, full length, GST-tagged (PHO4, Saccharomyces cerevisiae, UniProt P07270, residues 1-312)
Method: competition protein-binding microarray
Form: double-stranded DNA, one strand shown
Medium: in vitro
Concentration: 2 µM
Notes: whole 60-bp probe, lowest competitor level
Together with: Cbf1 competitor, 0.05 µM
Reading: higher = stronger binding
Construct (chain): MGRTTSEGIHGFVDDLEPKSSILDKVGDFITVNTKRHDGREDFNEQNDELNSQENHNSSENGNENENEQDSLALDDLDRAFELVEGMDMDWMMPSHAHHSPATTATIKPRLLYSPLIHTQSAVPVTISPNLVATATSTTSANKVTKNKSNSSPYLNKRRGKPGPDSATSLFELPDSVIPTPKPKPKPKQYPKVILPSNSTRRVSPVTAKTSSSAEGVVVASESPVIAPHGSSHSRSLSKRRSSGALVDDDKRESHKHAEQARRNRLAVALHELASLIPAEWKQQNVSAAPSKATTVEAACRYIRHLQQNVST
Oligonucleotide | fluorescence intensity [a.u.]
CTAACGAAGGTTTGATAAGTGGGTGACAAGCCAAGTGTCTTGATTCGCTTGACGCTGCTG | 4070
CTAACGAAGGTTTGCGCCGTGGGTGACAAGCCAAGTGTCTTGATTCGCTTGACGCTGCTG | 4910
TGGGGTGTCTGCCATCACGCTTTCCATTTGCACTGTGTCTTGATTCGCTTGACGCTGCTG | 6670
CTAACGAAGGTTTGCAGCGTGGGTGACAAGCCAAGTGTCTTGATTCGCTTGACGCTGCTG | 7240
TCAATTCTCCAGTACGGCGTGGGTACAGAACATGGCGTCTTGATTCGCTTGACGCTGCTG | 10100
GCTCTGTCATCGCTCAACGTGGAAGCTCCGACGGTGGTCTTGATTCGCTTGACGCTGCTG | 10100
TCTTCAGCCTTGCCCAACGTGGAGTCGACTACGCCCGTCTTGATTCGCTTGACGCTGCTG | 11000
GTCTTGTCTCATTGTTTAGTGGGTGTCCCCACTTCAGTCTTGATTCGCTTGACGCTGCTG | 4830
GCTGCTGCTGCGAGTCACGGGCTCTGTTTACTACTAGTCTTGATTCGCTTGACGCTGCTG | 5090
CATACCCAACCTTGCAGGGTGGGTGAAGATATTTGTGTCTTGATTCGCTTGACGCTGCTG | 4650
TCGAATAAAGTGAAACATGTGATACCCGCCATCCAAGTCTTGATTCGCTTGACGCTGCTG | 9600
TTTCCGCACAAGCACCATGTGTGAAAACATGCAGATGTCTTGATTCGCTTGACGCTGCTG | 11100
TGCGCAACAACTTTTCACGTGCTATTATGTCTAGAAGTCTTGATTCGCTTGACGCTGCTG | 13500
CGTTGGATCTAGTTCCACGTGGCCGAGCTTCAAGCCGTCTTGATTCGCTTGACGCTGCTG | 15500
GTCTTGTCTCATTGGATCGTGGGTGTCCCCACTTCAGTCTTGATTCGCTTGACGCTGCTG | 8520
CGTCCTAGTGATTGTTCAGTGGGTGCCATGAGGAAGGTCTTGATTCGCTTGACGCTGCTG | 6100
CGTCCTAGTGATTGTGGAGTGGGTGCCATGAGGAAGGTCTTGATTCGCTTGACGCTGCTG | 6990
TATTTTCTCAGCCGTCACGTGCGATAAAAAAGTCAAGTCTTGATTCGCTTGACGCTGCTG | 16100
CTTTCCCGATCTTGTCACTTAACTTTAGCACATTTGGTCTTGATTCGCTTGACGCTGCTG | 3760

Study 4
Target: Interferon regulatory factor 7, full length, phosphomimetic (IRF7, Homo sapiens, UniProt Q92985, residues 1-503, S101K/S471D/S472D/S475D/S476D/S477D/S483D/S484D/S487D)
Chain of UniProt Q92985 (whole entry, unmodified, looked up): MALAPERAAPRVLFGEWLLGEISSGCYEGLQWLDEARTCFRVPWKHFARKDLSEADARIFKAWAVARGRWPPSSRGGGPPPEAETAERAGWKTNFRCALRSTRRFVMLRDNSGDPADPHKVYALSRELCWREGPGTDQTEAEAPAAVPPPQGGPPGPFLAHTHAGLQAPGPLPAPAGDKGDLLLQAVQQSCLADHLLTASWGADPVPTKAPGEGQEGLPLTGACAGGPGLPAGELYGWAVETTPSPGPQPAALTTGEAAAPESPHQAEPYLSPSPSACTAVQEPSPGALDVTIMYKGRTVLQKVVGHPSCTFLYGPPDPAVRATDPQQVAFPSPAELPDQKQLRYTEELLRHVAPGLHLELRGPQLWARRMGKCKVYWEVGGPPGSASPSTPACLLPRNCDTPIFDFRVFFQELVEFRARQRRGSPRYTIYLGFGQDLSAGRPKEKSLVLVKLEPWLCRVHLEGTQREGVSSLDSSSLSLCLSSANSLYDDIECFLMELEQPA
Method: protein-binding microarray
Form: double-stranded DNA, one strand shown
Medium: in vitro
Concentration: 250 nM
Notes: 60-bp whole probe
Together with: salmon DNA 0.4 mg/ml
Reference: random background probes
Reading: higher = stronger binding
All sequences stand within: GCCTAGCAC … GTCTTGATTCGCTTGACGCTGCTG
Oligonucleotide | log fluorescence [z-score]
TTAGGTTCCCTTTTCCCTTAGTGCTAG | 4.37
TCAGTTCTTATCCTTCCCACTGTGCTA | 0.925
TTAGGTATCGACACTAGGTTAGTGCTA | -0.22
CTCACCCAGTCCAGACACCCGTGCTAG | -0.213
GACGGTTTCGACACTGGTGACGTGCTA | 3.7
GACGGACAGGGGACTGGGGACGTGCTA | -0.488
GAACTTCTGCATTACAGCTAGTGCTAG | -0.192
TTAGGTTTCCTTCTGCTTTAGTGCTAG | 2.58
TCACCATTAAATTTTAAACTGTGCTAG | 0.0937
GAGGGTATCGACTATCGGGACGTGCTA | -0.606
GACGGTATCGGACTAGGGACGTGCTAG | 0.165
GACGATCGCAGTCTCGAGACGTGCTAG | -0.0831
GACGGGATCCTTCTCCTGACGTGCTAG | -0.164
GACGATTTCGGGACTGGCGACGTGCTA | -0.0722
GACGATATCGGACTGGGGACGTGCTAG | -0.221
TTAGATTTCAGTATCGAATAGTGCTAG | 0.681
GACGATATCCGGTATCGAGACGTGCTA | 0.352
GCAACATTCACCATGGCTAGGTGCTAG | 0.154
GACGGACTGCTACTGCTGAAGTGCTAG | -0.677

For quick reference, copied from above (study 1):
Oligonucleotide | E-score
CTCGCATC | 0.0833
AGCACATC | -0.0617
GCACAGCC | 0.118
GTTGCCTA | 0.0719
GAGAGCAC | 0.13
GAAGACAC | -0.0401
AGCATGAA | 0.0216
CGTTCCCA | -0.0507
CACACGGC | 0.103
